{"data": "Measurements of several laboratories", "note": "Every numbered part comes from another study and shows a few of its results, in no order.", "sequence of UniProt P53667 (whole entry, looked up)": "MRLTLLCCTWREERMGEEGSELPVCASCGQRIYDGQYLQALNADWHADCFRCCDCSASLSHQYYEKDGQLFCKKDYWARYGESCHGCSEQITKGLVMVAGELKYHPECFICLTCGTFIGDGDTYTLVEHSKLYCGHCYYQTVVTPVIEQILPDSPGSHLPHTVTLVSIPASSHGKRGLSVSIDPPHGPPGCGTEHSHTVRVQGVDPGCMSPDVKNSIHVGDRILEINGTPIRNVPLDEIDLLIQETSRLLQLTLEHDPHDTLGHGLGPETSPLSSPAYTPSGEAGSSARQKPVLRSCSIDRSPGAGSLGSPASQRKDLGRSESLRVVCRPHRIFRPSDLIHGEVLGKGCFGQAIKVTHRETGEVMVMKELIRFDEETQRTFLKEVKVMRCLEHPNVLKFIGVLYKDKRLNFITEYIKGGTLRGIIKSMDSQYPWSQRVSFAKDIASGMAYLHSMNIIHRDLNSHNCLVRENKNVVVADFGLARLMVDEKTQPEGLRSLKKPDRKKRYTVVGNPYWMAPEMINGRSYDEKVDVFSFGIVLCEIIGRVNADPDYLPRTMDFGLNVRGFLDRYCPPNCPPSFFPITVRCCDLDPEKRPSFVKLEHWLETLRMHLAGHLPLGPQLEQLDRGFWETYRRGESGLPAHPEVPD", "sequence of UniProt Q9Y2I7 (whole entry, looked up)": "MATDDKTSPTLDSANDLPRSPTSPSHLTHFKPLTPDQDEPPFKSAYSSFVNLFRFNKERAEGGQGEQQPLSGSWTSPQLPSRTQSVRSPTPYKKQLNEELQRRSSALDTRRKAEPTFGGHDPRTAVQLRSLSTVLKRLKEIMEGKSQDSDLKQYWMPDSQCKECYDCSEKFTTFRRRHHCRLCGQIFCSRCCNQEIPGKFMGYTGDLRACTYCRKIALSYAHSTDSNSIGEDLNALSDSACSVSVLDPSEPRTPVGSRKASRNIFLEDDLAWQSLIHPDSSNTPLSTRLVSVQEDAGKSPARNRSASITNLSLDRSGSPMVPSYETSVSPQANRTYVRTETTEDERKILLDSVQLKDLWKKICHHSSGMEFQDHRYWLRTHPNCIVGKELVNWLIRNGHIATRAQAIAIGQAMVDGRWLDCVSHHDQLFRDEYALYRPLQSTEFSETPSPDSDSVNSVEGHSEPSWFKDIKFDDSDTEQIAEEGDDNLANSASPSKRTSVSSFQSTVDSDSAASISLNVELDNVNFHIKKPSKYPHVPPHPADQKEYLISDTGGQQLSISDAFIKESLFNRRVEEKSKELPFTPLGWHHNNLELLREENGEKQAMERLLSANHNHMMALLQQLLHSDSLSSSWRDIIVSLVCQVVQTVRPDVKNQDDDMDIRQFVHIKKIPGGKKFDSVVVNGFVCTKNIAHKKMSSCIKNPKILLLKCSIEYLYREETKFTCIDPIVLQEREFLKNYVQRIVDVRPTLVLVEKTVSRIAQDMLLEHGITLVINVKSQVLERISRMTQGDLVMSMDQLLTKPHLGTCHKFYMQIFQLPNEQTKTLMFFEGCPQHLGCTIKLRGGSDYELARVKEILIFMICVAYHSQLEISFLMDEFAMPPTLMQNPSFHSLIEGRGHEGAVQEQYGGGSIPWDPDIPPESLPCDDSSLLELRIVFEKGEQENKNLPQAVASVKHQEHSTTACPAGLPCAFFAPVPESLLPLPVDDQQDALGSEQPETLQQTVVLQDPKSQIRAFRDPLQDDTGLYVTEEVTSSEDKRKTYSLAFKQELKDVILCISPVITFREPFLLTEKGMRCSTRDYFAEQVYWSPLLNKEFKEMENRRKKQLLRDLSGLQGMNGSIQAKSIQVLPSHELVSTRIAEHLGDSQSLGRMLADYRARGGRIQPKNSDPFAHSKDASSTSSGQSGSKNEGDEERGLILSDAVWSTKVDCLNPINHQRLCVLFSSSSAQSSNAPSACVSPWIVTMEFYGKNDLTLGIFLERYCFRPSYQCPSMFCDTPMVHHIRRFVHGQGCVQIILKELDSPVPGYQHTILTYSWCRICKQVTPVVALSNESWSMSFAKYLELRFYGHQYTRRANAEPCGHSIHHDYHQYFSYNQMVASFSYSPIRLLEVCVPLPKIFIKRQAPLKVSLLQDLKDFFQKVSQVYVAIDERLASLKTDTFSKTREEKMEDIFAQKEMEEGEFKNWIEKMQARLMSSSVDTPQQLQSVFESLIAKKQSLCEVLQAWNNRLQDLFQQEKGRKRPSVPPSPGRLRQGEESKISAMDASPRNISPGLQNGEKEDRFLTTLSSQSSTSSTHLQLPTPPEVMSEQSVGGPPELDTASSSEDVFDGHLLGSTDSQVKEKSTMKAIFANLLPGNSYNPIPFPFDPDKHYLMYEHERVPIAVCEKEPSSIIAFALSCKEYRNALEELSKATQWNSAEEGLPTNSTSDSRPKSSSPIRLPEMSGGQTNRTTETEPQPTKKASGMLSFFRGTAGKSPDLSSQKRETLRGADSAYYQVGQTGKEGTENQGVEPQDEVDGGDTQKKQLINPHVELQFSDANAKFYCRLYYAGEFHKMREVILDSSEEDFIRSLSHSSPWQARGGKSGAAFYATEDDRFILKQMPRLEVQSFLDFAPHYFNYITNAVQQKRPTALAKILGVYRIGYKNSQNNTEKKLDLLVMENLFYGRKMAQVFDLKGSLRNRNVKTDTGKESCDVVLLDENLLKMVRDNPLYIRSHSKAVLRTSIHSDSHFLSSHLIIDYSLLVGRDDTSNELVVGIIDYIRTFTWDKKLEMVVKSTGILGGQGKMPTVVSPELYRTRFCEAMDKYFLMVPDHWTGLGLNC", "sequence of UniProt P09769 (whole entry, looked up)": "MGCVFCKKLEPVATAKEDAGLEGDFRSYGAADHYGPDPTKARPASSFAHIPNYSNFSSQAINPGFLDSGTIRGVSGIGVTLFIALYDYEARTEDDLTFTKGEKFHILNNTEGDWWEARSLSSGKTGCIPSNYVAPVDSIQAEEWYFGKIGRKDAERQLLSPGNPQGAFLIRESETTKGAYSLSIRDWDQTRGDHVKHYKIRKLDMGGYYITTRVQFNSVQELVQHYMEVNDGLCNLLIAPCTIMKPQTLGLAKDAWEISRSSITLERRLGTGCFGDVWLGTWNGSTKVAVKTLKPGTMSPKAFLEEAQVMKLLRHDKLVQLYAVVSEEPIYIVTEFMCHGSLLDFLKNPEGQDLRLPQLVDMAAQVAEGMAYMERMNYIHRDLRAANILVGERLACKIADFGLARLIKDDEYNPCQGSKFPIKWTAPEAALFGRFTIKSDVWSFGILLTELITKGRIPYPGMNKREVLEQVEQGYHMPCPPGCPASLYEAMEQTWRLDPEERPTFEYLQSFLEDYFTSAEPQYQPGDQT", "sequence of UniProt Q92772 (whole entry, looked up)": "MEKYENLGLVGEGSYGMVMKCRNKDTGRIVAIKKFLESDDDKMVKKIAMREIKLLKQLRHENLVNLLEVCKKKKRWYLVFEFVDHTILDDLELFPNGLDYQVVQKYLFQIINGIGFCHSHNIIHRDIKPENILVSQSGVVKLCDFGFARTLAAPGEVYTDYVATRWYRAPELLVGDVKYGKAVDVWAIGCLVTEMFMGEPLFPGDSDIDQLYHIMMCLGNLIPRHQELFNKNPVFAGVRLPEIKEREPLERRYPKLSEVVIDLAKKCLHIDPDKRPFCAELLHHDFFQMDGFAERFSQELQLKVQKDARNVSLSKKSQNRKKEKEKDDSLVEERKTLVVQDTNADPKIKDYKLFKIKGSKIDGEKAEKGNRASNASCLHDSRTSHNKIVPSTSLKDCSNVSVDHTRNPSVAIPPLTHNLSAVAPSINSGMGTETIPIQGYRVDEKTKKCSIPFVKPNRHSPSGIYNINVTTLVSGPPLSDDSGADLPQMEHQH", "sequence of UniProt Q8TDX7 (whole entry, looked up)": "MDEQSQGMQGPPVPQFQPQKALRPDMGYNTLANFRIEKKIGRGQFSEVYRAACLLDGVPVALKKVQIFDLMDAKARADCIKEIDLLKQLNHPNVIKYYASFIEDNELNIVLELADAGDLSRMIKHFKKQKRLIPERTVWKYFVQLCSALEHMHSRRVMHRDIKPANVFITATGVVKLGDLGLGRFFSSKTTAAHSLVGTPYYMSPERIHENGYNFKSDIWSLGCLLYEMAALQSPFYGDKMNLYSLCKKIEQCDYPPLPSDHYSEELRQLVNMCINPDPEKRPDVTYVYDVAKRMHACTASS"}
{"data": "Set 1", "target": "Calcium/calmodulin-dependent protein kinase type II subunit alpha (CAMK2A, Homo sapiens, UniProt Q9UQM7)", "effect on": "enzyme activity", "action": "inhibitor", "concentration": "10 µM", "sequence of UniProt Q9UQM7 (whole entry, looked up)": "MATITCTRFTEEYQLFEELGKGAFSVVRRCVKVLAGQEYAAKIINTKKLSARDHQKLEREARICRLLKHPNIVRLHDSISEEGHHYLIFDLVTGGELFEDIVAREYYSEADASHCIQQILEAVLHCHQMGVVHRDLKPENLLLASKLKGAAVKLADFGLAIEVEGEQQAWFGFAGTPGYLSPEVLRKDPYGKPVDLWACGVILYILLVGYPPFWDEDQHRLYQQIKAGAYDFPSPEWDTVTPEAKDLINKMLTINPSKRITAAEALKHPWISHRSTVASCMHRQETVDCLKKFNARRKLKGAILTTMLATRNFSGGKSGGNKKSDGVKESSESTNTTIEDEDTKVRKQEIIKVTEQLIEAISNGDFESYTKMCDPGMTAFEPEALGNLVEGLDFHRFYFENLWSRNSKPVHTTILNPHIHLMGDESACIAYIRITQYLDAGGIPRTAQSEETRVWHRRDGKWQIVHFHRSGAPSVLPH"}
{"Structure (SMILES)": "O=C(O)Cc1cccc2ccccc12", "inhibition": "4%"}
{"Structure (SMILES)": "CC[C@H]1OC(=O)[C@H](C)C(=O)[C@H](C)[C@@H](O[C@@H]2O[C@H](C)C[C@H](N(C)C)[C@H]2O)[C@](C)(OC)C[C@@H](C)C(=O)[C@H](C)[C@H]2N(CCCCn3cnc(-c4cccnc4)c3)C(=O)O[C@]12C", "inhibition": "1%"}
{"Structure (SMILES)": "CC[C@H]1OC(=O)[C@H](C)[C@@H](O[C@H]2C[C@@](C)(OC)[C@@H](O)[C@H](C)O2)[C@H](C)[C@@H](O[C@@H]2O[C@H](C)C[C@H](N(C)C)[C@H]2O)[C@](C)(O)C[C@@H](C)CN(C)[C@H](C)[C@@H](O)[C@]1(C)O", "inhibition": "-2%"}
{"Structure (SMILES)": "CCCCCCCN(CC)CCCC(O)c1ccc(NS(C)(=O)=O)cc1 (stereo not shown)", "inhibition": "-3%"}
{"Structure (SMILES)": "COc1cc2oc(-c3ccc(O)c(O)c3)cc(=O)c2c(O)c1OC", "inhibition": "14%"}
{"Structure (SMILES)": "CN(C)C(=O)C(CCN1CCC(O)(c2ccc(Cl)cc2)CC1)(c1ccccc1)c1ccccc1", "inhibition": "-11%"}
{"Structure (SMILES)": "Cn1cnc2c(F)c(Nc3ccc(Br)cc3F)c(C(=O)NOCCO)cc21", "inhibition": "-9%"}
{"Structure (SMILES)": "CN(C)CCC=C1c2ccccc2C=Cc2ccccc21", "inhibition": "-3%"}
{"data": "Set 2", "target": "Inhibitor of nuclear factor kappa-B kinase subunit epsilon (IKBKE, Homo sapiens, UniProt Q14164)", "effect on": "enzyme activity", "action": "inhibitor", "concentration": "0.5 µM", "relative to": "control", "Residues (Q14164 1-716)": "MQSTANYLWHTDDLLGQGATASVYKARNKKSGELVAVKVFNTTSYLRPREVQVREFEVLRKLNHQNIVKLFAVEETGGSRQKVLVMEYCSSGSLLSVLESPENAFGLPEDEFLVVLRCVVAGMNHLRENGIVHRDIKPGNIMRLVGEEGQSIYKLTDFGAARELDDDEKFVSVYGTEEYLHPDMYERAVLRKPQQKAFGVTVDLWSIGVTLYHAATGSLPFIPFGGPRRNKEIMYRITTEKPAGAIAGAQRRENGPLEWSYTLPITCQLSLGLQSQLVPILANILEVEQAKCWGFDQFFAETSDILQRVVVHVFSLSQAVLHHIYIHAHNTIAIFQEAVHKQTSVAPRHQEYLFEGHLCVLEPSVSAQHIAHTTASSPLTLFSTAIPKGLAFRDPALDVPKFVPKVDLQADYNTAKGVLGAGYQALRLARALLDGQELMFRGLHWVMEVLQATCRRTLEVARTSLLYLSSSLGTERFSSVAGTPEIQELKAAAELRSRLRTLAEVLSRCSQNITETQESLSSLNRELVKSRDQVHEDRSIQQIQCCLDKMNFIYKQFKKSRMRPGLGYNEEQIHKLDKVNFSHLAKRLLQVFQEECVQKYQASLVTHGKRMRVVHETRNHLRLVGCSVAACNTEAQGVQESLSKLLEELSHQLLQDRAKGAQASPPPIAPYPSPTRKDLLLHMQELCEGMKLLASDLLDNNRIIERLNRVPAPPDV"}
{"Compound": "N#CC(C#N)=C(N)/C(C#N)=C/c1ccc(O)cc1", "remaining activity [%]": 91}
{"Compound": "Cc1cccc(-c2[nH]c(C(C)(C)C)nc2-c2ccc3c(c2)OCO3)n1", "remaining activity [%]": 91.8}
{"Compound": "CN(C)c1ccc(C=C2C(=O)Nc3ccccc32)cc1", "remaining activity [%]": 98.2}
{"Compound": "Oc1ccc(-c2nc(-c3ccncc3)c(-c3ccc(F)cc3)[nH]2)cc1", "remaining activity [%]": 101}
{"Compound": "OCC(O)CCON=C1C(c2c(O)[nH]c3ccccc23)=Nc2ccccc21 (stereo not shown)", "remaining activity [%]": 45.7}
{"Compound": "Cc1ccc(NC(=O)c2ccc(CN3CCN(C)CC3)cc2)cc1Nc1nc(-c2cccnc2)cs1", "remaining activity [%]": 97.2}
{"Compound": "O=C(O)c1ccc2c3c1cccc3c(=O)n1c3ccccc3nc21", "remaining activity [%]": 57.3}
{"Compound": "O=C1NC(=O)C(c2cn(CCCO)c3ncccc23)=C1c1cnccn1", "remaining activity [%]": 90}
{"Compound": "COc1cc2ncnc(Nc3ccc(Oc4ccccc4)cc3)c2cc1OC", "remaining activity [%]": 101}
{"Compound": "C#Cc1cccc(Nc2ncnc3cc(OCCOC)c(OCCOC)cc23)c1", "remaining activity [%]": 87.6}
{"Compound": "COc1ccc(C(=O)Nc2sc3c(c2C(N)=O)CCCC3)cc1OC", "remaining activity [%]": 106}
{"Compound": "Cn1sc(=O)n(Cc2ccccc2)c1=O", "remaining activity [%]": 96.4}
{"Compound": "CNC(=O)c1cc(Oc2ccc(NC(=O)Nc3ccc(Cl)c(C(F)(F)F)c3)cc2)ccn1", "remaining activity [%]": 89.8}
{"Compound": "O=C(CCCc1ccc(-c2ccccc2F)cc1)Nc1ccc(O)cc1", "remaining activity [%]": 98.2}
{"Compound": "Nc1ncnc2n[nH]c(Nc3ccc(F)cc3)c12", "remaining activity [%]": 100}
{"data": "Set 3", "SMILES": "C[C@@H]1CN(c2cc(-c3n[nH]c4ccc(OC5(C)CC5)cc34)ncn2)C[C@H](C)O1", "effect on": "cell-free assay", "method": "competition with immobilised ligand", "concentration": "0.1 µM"}
{"target": "Atypical kinase COQ8A, mitochondrial (COQ8A, Homo sapiens, UniProt Q8NI60)", "remaining binding [%]": 85}
{"target": "Epidermal growth factor receptor (EGFR, Homo sapiens, UniProt P00533, A750P/del747-749)", "remaining binding [%]": 73}
{"target": "LIM domain kinase 1 (LIMK1, Homo sapiens, UniProt P53667)", "remaining binding [%]": 86}
{"target": "Serine/threonine-protein kinase Nek10 (NEK10, Homo sapiens, UniProt Q6ZWH5)", "remaining binding [%]": 69}
{"target": "Macrophage colony-stimulating factor 1 receptor (CSF1R, Homo sapiens, UniProt P07333)", "remaining binding [%]": 91}
{"target": "Ephrin type-A receptor 7 (EPHA7, Homo sapiens, UniProt Q15375)", "remaining binding [%]": 82}
{"target": "Serine/threonine-protein kinase Nek7 (NEK7, Homo sapiens, UniProt Q8TDX7)", "remaining binding [%]": 100}
{"target": "Cyclin-dependent kinase-like 2 (CDKL2, Homo sapiens, UniProt Q92772)", "remaining binding [%]": 100}
{"target": "Tyrosine-protein kinase Fgr (FGR, Homo sapiens, UniProt P09769)", "remaining binding [%]": 89}
{"target": "1-phosphatidylinositol 3-phosphate 5-kinase (PIKFYVE, Homo sapiens, UniProt Q9Y2I7)", "remaining binding [%]": 90}
{"data": "Set 4", "cell line": "Huh-7", "concentration": "10 µM", "time": "24 h"}
{"SMILES": "C/C=C(/C(=C/C)c1ccc(O)cc1)c1ccc(O)cc1", "viability [%]": 95.8}
{"SMILES": "C=C1C[C@H]2[C@@H]3C=C(C)C4=CC(=O)CC[C@]4(C)[C@H]3CC[C@]2(C)[C@@]1(OC(C)=O)C(C)=O", "viability [%]": 80}
{"SMILES": "Cc1cc(=O)n(-c2ccccc2)n1C", "viability [%]": 95.3}
{"SMILES": "CO[C@H]1/C=C/O[C@@]2(C)Oc3c(C)c(O)c4c(O)c(c5c(nc6cc(C)ccn65)c4c3C2=O)NC(=O)/C(C)=C\\C=C\\[C@H](C)[C@H](O)[C@@H](C)[C@@H](O)[C@@H](C)[C@H](OC(C)=O)[C@@H]1C", "viability [%]": 93.9}
{"SMILES": "CCCOc1ccc2nc(NC(=O)OC)[nH]c2c1", "viability [%]": 62.1}
{"SMILES": "CC(Oc1ccccc1)C(=O)N[C@@H]1C(=O)N2[C@@H]1SC(C)(C)[C@@H]2C(=O)O (stereo partly shown)", "viability [%]": 104}
{"SMILES": "CC1(C)S[C@@H]2[C@H](NC(=O)C(C(=O)O)c3ccccc3)C(=O)N2[C@H]1C(=O)O (stereo partly shown)", "viability [%]": 100}
{"SMILES": "O=C(O)[C@H]1/C(=C/CO)O[C@@H]2CC(=O)N21", "viability [%]": 102}
{"SMILES": "CCCCC1=NC2(CCCC2)C(=O)N1Cc1ccc(-c2ccccc2-c2nnn[nH]2)cc1", "viability [%]": 96.3}
{"SMILES": "O=C1NCC2(CCN(CCc3ccccc3)CC2)O1", "viability [%]": 98.3}
{"note": "Some of these lines once more (set 1):"}
{"Structure (SMILES)": "CC[C@H]1OC(=O)[C@H](C)C(=O)[C@H](C)[C@@H](O[C@@H]2O[C@H](C)C[C@H](N(C)C)[C@H]2O)[C@](C)(OC)C[C@@H](C)C(=O)[C@H](C)[C@H]2N(CCCCn3cnc(-c4cccnc4)c3)C(=O)O[C@]12C", "inhibition": "1%"}
{"Structure (SMILES)": "CC[C@H]1OC(=O)[C@H](C)[C@@H](O[C@H]2C[C@@](C)(OC)[C@@H](O)[C@H](C)O2)[C@H](C)[C@@H](O[C@@H]2O[C@H](C)C[C@H](N(C)C)[C@H]2O)[C@](C)(O)C[C@@H](C)CN(C)[C@H](C)[C@@H](O)[C@]1(C)O", "inhibition": "-2%"}
{"Structure (SMILES)": "CCCCCCCN(CC)CCCC(O)c1ccc(NS(C)(=O)=O)cc1 (stereo not shown)", "inhibition": "-3%"}
{"Structure (SMILES)": "COc1cc2oc(-c3ccc(O)c(O)c3)cc(=O)c2c(O)c1OC", "inhibition": "14%"}
{"Structure (SMILES)": "CN(C)C(=O)C(CCN1CCC(O)(c2ccc(Cl)cc2)CC1)(c1ccccc1)c1ccccc1", "inhibition": "-11%"}
{"Structure (SMILES)": "Cn1cnc2c(F)c(Nc3ccc(Br)cc3F)c(C(=O)NOCCO)cc21", "inhibition": "-9%"}
{"Structure (SMILES)": "CN(C)CCC=C1c2ccccc2C=Cc2ccccc21", "inhibition": "-3%"}
